Assay results gathered from unrelated publications.
A part holds a random share of what one study measured.
UniProt Q16816, sequence (whole entry, looked up): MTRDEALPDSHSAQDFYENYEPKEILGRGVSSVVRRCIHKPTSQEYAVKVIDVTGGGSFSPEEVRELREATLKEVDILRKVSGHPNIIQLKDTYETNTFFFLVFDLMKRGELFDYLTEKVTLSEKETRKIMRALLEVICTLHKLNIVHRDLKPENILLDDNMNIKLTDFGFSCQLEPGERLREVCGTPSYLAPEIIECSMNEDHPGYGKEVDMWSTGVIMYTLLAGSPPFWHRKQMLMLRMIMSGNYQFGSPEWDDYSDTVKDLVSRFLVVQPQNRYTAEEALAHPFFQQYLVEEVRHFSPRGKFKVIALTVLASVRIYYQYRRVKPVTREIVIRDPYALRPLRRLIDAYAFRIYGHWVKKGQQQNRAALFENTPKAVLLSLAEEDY
UniProt Q00532, sequence (whole entry, looked up): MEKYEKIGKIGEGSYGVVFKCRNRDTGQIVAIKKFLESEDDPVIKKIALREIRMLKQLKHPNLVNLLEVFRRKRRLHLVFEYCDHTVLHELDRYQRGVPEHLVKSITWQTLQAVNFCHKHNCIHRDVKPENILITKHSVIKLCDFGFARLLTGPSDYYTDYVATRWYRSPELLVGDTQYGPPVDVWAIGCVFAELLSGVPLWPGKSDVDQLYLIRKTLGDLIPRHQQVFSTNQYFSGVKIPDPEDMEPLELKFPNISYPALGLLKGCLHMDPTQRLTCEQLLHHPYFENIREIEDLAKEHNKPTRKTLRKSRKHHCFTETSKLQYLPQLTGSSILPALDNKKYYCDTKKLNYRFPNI
UniProt O15530, sequence (whole entry, looked up): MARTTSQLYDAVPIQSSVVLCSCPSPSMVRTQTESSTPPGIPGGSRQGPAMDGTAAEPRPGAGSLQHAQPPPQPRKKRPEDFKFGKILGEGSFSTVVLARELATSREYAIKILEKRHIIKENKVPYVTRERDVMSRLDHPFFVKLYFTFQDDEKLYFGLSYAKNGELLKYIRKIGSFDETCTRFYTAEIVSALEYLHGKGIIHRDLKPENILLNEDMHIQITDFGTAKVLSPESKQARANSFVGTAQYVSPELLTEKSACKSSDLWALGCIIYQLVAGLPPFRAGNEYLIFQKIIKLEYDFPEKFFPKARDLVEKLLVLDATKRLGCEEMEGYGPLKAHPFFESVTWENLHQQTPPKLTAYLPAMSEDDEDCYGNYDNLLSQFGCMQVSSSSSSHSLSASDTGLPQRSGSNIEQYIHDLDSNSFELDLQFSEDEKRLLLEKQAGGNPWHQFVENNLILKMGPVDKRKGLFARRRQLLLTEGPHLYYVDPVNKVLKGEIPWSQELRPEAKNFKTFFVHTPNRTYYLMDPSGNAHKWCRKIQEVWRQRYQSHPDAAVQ
UniProt O60285, sequence (whole entry, looked up): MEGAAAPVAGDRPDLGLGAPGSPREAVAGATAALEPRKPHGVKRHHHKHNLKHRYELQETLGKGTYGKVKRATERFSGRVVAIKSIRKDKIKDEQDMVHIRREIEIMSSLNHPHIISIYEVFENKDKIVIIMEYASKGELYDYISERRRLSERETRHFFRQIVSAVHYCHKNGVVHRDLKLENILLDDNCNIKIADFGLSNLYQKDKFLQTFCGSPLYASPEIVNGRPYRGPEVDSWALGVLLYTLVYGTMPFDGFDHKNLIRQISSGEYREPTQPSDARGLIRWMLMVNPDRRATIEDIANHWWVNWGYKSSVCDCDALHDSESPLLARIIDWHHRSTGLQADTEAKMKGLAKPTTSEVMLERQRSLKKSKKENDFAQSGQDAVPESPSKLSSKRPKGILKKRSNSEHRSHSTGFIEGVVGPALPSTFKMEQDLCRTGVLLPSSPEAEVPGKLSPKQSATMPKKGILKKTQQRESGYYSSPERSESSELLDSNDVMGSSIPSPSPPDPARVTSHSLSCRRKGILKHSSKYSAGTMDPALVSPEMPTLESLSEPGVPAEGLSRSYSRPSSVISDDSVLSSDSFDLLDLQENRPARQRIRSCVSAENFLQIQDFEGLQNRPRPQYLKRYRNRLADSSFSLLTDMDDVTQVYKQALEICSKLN
UniProt O95819, sequence (whole entry, looked up): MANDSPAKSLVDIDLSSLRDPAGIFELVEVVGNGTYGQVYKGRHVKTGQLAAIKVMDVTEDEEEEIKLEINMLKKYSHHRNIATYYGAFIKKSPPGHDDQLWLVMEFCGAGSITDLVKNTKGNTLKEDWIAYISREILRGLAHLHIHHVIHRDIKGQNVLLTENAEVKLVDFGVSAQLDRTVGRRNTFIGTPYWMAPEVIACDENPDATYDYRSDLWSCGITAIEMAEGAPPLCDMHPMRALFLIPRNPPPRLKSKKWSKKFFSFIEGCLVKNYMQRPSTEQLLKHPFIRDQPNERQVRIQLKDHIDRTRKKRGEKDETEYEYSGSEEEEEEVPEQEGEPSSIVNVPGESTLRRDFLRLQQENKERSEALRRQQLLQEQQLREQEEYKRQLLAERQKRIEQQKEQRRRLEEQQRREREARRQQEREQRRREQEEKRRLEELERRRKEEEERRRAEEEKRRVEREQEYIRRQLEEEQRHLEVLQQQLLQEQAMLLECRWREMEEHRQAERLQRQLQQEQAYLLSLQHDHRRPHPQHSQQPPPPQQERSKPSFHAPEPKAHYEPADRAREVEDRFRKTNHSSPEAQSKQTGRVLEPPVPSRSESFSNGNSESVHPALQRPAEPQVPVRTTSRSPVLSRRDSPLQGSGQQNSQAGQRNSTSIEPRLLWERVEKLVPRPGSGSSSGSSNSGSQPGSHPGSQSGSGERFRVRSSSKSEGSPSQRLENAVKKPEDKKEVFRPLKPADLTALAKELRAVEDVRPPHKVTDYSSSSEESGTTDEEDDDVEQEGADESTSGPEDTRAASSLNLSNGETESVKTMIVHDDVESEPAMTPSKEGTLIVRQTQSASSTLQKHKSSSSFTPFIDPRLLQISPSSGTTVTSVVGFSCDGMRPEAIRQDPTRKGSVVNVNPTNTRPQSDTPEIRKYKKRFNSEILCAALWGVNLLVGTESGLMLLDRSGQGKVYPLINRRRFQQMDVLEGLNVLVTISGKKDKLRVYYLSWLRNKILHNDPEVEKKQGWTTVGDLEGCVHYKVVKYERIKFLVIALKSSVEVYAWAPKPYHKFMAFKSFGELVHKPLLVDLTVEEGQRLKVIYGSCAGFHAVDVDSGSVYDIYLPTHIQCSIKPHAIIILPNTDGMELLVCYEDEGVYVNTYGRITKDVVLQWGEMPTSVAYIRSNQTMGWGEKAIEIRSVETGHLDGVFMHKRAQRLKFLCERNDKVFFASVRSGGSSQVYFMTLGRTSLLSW
UniProt Q9H3Y6, sequence (whole entry, looked up): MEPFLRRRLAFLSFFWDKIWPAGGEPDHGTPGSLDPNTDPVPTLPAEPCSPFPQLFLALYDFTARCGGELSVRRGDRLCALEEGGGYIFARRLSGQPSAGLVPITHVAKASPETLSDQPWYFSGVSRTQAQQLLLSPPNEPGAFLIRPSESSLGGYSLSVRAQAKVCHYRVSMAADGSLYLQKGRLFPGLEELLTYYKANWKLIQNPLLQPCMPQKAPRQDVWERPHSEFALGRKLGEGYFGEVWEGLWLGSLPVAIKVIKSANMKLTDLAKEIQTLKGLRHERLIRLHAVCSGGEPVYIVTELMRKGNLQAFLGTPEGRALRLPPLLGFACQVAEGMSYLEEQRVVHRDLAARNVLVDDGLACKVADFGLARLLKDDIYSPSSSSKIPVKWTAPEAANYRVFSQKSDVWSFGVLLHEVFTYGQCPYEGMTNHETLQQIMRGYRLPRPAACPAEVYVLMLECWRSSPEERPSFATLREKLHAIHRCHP
UniProt Q9UEE5, sequence (whole entry, looked up): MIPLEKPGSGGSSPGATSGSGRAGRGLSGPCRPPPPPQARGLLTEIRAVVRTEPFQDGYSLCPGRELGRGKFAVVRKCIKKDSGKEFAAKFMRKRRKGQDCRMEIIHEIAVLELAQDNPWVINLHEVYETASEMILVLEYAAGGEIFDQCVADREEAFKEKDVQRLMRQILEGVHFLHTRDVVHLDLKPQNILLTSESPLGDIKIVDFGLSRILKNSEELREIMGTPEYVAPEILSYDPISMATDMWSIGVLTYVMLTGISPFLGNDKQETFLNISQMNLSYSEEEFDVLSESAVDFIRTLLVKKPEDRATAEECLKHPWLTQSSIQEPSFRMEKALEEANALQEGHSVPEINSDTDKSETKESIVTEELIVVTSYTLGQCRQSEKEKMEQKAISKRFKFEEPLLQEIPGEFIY
UniProt P36896, sequence (whole entry, looked up): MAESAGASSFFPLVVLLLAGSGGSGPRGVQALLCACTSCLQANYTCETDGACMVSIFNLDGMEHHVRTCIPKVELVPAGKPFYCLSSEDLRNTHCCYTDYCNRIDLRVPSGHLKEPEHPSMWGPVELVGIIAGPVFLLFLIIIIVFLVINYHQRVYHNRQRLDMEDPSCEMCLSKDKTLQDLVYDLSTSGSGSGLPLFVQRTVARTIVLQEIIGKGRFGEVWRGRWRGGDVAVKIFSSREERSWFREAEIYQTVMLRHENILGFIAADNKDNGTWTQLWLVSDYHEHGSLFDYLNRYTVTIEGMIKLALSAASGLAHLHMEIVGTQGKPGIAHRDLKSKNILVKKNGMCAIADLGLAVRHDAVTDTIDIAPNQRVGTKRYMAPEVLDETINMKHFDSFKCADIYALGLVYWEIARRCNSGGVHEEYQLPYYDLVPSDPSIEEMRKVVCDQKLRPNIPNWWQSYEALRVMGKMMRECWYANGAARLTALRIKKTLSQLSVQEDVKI
UniProt Q9BXA7, sequence (whole entry, looked up): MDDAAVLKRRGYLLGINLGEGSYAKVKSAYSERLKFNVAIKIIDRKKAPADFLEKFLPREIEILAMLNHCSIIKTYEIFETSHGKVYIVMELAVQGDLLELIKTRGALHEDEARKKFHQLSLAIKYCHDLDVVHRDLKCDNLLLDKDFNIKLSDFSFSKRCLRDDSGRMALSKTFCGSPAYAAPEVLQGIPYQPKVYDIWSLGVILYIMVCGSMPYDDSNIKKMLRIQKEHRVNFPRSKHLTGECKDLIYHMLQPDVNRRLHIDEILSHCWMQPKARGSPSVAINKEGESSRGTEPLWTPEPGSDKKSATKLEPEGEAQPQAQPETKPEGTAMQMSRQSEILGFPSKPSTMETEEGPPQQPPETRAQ

Sample 1
Compound: O=C(N[C@H]1CCCCC/C=C\C2C[C@@]2(C(=O)O)NC(=O)[C@@H]2C[C@@H](Oc3ccncc3)CN2C1=O)OC1CCCC1 (stereo partly drawn)
Technique: competition with immobilised ligand
Tested at: 1 µM
Endpoint: remaining binding
PIP4K2C (Homo sapiens, UniProt Q8TBX8); binding: 100%
CDKL1 (Homo sapiens, UniProt Q00532); binding: 100%
TSSK1B (Homo sapiens, UniProt Q9BXA7); binding: 77%
NUAK1 (Homo sapiens, UniProt O60285); binding: 99%
ACVR1B (Homo sapiens, UniProt P36896); cell-free assay: 100%
HCK (Homo sapiens, UniProt P08631); cell-free assay: 100%
PAK6 (Homo sapiens, UniProt Q9NQU5); binding: 100%
Non-receptor tyrosine-protein kinase TYK2, JH2 (TYK2, Homo sapiens, UniProt P29597); binding: 99%
PIK3CA (Homo sapiens, UniProt P42336, I800L); binding: 100%
ANKK1 (Homo sapiens, UniProt Q8NFD2); binding: 100%
CHUK (Homo sapiens, UniProt O15111); cell-free assay: 100%
EGFR (Homo sapiens, UniProt P00533, L858R); cell-free assay: 96%

Sample 2
SMILES: CC(C)c1nn(-c2c(Cl)cccc2Cl)c2nc(Cc3ccc(OCCO)cc3)[nH]c(=O)c12
Effect on: enzyme activity
Mode: inhibitor
Tested at: 0.5 µM
Reference: control
Endpoint: remaining activity
CAMK2B (Homo sapiens, UniProt Q13554): 104%
MAP4K4 (Homo sapiens, UniProt O95819): 84.5%
STK17A (Homo sapiens, UniProt Q9UEE5): 98.3%
SRMS (Homo sapiens, UniProt Q9H3Y6): 91.5%
PHKG1 (Homo sapiens, UniProt Q16816): 87%
PDPK1 (Homo sapiens, UniProt O15530): 94.9%
Cyclin-dependent kinase 1, with cyclin B (CDK1, Homo sapiens, UniProt P06493): -1.2%
MAPKAPK3 (Homo sapiens, UniProt Q16644): 89.2%
HIPK2 (Homo sapiens, UniProt Q9H2X6): 104%
AXL (Homo sapiens, UniProt P30530): 98%
EPHA4 (Homo sapiens, UniProt P54764): 102%

Sample 3
Target: TAR DNA-binding protein 43, full length, His tag (TARDBP, Homo sapiens, UniProt Q13148, residues 1-414)
Technique: RNA Bind-n-Seq
Form: RNA
Medium: in vitro
Tested at: 20 nM
Setting: 6-mer, flanks averaged, single round
Added: 150 mM KCl
Reference: input library
Reading: higher = stronger binding
Endpoint: 6-mer enrichment (R)
GGACUC: 0.969
CGGCAG: 1.55
AUUGGG: 1.77
GCGAUA: 0.825
CUAUAA: 0.681
CGUUCA: 0.568
AUACCC: 0.621
GGAACU: 0.982

Sample 4
Target: Prothrombin, mature alpha-thrombin (F2, Homo sapiens, UniProt P00734)
Technique: aptamer microarray, sandwich
Form: DNA with 2'F-ANA
Medium: in vitro
Tested at: 200 nM
Setting: whole 15-mer aptamer, many near background
Added: Cy3 exosite-II aptamer, 400 nM
Reading: higher = stronger binding
Endpoint: mean fluorescence intensity
Sequence: GGTTGGTGTGGTTGG
2'F-ANA at 2 3 4 12 13 14: 363 a.u.
2'F-ANA at 1 3 4 6 8 14 15: 70 a.u.
2'F-ANA at 3 4 5 9 13: 61.8 a.u.
2'F-ANA at 1 2 5 6 7 10 15: 48.7 a.u.
2'F-ANA at 2 3 4 7 9 11 12 13 14 15: 244 a.u.
2'F-ANA at 1 4 5 7 8 10 11 12 13: 52.1 a.u.
2'F-ANA at 1 2 4 5 7 10: 45.8 a.u.
2'F-ANA at 4 7 8 10 12 13 14 15: 63.9 a.u.
